Published values collected from several papers.
Protocols differ between the studies behind these lines. ± marks the error that the study gave.
IDO1: Indoleamine 2,3-dioxygenase 1 (IDO1, Homo sapiens, UniProt P14902)
UniProt P14902, sequence (whole entry, looked up): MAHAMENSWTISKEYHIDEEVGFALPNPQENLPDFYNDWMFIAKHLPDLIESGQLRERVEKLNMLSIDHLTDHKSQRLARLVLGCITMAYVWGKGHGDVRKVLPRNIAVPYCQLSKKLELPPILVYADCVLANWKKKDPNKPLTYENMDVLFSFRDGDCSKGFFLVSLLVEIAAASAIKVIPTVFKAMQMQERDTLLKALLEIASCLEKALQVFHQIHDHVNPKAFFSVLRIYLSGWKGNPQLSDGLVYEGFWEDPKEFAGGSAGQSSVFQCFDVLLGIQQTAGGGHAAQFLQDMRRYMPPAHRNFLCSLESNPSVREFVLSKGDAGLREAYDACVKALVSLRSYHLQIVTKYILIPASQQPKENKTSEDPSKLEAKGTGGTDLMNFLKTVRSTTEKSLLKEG
PPO3: PPO3 (Agaricus bisporus, UniProt C7FF04)
UniProt C7FF04, sequence (whole entry, looked up): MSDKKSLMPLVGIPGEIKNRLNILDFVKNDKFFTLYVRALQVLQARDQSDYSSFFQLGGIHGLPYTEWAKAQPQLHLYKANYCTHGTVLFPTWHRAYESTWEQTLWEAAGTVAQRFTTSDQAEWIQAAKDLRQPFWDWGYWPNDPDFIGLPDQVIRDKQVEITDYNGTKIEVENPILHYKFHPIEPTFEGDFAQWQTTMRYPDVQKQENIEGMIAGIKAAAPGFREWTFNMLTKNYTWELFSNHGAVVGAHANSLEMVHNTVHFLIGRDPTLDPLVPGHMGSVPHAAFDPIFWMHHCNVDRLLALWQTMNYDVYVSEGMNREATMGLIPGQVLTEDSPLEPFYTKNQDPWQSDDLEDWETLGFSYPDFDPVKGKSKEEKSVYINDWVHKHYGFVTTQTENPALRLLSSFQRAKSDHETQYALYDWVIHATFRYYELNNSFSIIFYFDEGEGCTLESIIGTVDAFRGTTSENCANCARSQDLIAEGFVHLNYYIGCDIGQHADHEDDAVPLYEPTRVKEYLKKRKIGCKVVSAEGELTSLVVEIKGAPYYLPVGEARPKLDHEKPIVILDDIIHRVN
Aldo-keto reductase family 1 member B1: Aldo-keto reductase family 1 member B1 (Bos taurus, UniProt P16116)
Genome polyprotein NS2B-NS3 protease: Genome polyprotein, NS2B-NS3 protease (Dengue virus type 2, UniProt P14340)
gag-pol integrase: Gag-Pol polyprotein, integrase (gag-pol, Human immunodeficiency virus type 1 group M subtype B, UniProt P04585)
CHRM1: Muscarinic acetylcholine receptor M1 (CHRM1, Homo sapiens, UniProt P11229)
UniProt P11229, sequence (whole entry, looked up): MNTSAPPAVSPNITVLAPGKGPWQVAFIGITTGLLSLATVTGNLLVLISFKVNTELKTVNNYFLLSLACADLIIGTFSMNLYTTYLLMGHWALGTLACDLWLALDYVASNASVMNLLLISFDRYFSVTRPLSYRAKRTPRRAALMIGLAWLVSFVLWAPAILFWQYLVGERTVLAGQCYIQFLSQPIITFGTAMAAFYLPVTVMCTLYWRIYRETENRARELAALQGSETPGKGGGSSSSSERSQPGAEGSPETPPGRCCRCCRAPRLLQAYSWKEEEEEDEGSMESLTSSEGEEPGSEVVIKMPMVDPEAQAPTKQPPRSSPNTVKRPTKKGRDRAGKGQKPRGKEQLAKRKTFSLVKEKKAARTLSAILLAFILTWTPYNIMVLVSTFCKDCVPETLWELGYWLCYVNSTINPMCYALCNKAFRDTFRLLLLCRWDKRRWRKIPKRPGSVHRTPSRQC
KDM1A with CoREST: Lysine-specific histone demethylase 1A, with CoREST (KDM1A, Homo sapiens, UniProt O60341)
SCN10A: Sodium channel protein type 10 subunit alpha (SCN10A, Homo sapiens, UniProt Q9Y5Y9)
UniProt Q9Y5Y9, sequence (whole entry, looked up): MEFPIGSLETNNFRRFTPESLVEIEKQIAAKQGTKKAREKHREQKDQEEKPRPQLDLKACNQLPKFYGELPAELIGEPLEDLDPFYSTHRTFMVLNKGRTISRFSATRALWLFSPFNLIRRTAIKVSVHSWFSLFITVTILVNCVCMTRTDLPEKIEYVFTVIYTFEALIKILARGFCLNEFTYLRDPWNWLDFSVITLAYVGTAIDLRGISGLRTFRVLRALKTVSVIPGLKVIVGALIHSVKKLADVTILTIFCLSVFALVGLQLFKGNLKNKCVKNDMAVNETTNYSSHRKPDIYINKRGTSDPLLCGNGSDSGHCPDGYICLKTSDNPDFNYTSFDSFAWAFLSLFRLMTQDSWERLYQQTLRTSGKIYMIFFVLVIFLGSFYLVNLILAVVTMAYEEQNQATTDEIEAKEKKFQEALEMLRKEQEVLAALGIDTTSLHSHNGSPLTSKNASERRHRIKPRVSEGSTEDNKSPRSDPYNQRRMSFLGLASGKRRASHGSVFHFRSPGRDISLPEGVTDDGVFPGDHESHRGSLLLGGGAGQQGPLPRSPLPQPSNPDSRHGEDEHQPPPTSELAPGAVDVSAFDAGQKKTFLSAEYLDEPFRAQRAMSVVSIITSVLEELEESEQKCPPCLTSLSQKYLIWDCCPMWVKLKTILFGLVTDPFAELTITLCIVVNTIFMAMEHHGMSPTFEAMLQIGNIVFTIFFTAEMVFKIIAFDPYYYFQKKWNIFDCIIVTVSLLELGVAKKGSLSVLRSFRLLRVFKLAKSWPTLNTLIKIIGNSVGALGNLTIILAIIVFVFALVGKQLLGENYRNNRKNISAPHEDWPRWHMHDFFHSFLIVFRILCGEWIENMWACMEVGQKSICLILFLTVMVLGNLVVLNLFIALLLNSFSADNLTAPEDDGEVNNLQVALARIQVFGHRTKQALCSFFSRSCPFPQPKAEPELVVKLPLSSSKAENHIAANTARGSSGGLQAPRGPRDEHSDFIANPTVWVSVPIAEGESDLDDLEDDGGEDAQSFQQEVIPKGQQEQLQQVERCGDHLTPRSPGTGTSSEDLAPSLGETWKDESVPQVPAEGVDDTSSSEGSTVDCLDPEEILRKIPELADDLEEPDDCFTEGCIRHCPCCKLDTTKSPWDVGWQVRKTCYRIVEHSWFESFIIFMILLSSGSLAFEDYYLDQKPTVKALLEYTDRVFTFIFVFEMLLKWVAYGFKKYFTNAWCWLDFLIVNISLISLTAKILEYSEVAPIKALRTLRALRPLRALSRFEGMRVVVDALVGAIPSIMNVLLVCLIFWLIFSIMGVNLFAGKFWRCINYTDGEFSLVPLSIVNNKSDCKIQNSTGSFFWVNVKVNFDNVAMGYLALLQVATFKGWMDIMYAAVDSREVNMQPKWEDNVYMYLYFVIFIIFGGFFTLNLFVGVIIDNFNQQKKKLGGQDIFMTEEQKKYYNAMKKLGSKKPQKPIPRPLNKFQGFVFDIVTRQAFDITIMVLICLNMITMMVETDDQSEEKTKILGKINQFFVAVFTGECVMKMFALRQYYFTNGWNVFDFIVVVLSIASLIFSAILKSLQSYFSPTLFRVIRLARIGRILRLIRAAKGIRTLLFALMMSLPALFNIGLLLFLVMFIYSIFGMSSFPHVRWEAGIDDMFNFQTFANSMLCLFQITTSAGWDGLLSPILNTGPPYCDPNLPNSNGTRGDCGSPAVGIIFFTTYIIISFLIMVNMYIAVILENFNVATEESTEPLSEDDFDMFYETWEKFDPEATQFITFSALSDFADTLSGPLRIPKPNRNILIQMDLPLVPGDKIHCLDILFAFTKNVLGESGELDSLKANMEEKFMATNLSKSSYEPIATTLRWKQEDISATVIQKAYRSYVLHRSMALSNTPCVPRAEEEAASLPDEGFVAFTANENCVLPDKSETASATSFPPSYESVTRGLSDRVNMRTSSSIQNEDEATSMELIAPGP
CES1: Liver carboxylesterase 1 (CES1, Homo sapiens, UniProt P23141)
UniProt P23141, sequence (whole entry, looked up): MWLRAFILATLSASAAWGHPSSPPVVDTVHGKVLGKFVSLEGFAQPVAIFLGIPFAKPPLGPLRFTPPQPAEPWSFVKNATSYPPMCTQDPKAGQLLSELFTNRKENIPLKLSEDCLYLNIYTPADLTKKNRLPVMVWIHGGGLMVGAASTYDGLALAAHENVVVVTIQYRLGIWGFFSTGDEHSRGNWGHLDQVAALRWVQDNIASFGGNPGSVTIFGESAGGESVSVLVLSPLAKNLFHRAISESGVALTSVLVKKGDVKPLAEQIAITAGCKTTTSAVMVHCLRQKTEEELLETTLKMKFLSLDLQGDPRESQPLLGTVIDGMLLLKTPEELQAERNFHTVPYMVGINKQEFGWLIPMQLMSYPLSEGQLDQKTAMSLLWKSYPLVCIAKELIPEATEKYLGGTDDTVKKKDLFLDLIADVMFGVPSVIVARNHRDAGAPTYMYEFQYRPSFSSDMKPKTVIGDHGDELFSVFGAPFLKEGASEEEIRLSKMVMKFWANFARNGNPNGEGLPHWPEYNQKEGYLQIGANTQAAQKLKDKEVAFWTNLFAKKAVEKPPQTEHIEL
UniProt Q7Z1V1, sequence (whole entry, looked up): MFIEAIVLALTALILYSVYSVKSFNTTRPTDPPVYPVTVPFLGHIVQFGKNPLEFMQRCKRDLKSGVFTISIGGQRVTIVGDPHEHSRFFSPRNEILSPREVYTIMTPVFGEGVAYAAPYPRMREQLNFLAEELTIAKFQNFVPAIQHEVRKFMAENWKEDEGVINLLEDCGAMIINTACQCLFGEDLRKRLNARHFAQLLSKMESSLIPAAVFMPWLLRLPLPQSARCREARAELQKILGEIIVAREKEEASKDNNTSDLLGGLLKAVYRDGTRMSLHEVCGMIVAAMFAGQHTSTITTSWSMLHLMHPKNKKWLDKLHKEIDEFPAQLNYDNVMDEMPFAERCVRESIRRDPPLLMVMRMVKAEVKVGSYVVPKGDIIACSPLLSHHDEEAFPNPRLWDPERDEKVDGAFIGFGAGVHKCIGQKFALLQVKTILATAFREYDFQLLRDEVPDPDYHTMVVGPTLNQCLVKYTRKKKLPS
UniProt P9WQN9, sequence (whole entry, looked up): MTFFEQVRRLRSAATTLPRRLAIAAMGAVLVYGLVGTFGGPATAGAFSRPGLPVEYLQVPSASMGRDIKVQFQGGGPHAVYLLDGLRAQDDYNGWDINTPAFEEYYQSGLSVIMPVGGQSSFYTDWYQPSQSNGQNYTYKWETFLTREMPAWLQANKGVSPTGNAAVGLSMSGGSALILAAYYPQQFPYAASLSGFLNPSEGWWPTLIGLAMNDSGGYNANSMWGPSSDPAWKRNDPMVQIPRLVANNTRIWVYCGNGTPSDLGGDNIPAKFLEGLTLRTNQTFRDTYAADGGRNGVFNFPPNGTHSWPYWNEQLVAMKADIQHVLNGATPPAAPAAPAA

Molecule	target	assay	system	conditions	how to read	quantity	result
O=C(NCc1nnc2ccc(C(F)(F)F)cn12)c1c(F)ccc(Cl)c1Cl	IDO1	kynurenine production, inhibitor, item: L-kynurenine	A-375	10 µM, 48 h, with: IFN-γ		inhibition	11 ± 1%
COc1ccc(/C=C2\OC(=S)N(c3ccccc3)C2=O)cc1OC	PPO3	enzyme activity, inhibitor		25 µM		inhibition	7.47%
C/C(=N/N=c1/scc(-c2ccc(Cl)cc2)n1-c1ccccc1)c1ccc2c(c1)NC(=O)CO2	Aldo-keto reductase family 1 member B1	enzyme activity, inhibitor, absorbance		1 mM		inhibition	16.8%
CCCC[C@H](NC(=O)[C@@H](NC(=O)[C@H](CCCNC(=N)N)NC(=O)CN)[C@@H](C)O)C(=O)N[C@@H](CCC(N)=O)C(=O)N[C@H](C(=O)N[C@@H](C)C(=O)N[C@@H](CCCNC(=N)N)C(=O)N[C@@H](CCCCN)C(=O)N[C@@H](CO)C(=O)N[C@H](C(=O)NCC(=O)NCC(N)=O)[C@@H](C)O)[C@@H](C)O	SETD7 (Homo sapiens, UniProt Q8WTS6)	enzyme activity, inhibitor, MALDI-TOF MS		50 µM, 10 min preincubation, 30 min, pH 8, 37 °C, enzyme 500 nM, with: H3 1-21 peptide, SAM 30 µM		inhibition	~77%
C/C(=N/N=c1/scc(-c2ccc(Br)cc2)n1-c1c(C)cccc1C)c1ccc2c(c1)NC(=O)CO2	Aldo-keto reductase family 1 member B1	enzyme activity, inhibitor, absorbance		1 mM		inhibition	22.7%
O=C1C(=Cc2ccccc2Cl)CN(CC(=O)c2ccc(F)cc2)CC1=Cc1ccccc1Cl	Genome polyprotein NS2B-NS3 protease	protease activity	dengue virus 2	50 µM		inhibition	< 10%
C/C(=N/N=c1/scc(-c2ccc(Cl)cc2)n1-c1ccc(F)cc1)c1ccc2c(c1)NC(=O)CO2	Aldo-keto reductase family 1 member B1	enzyme activity, inhibitor, absorbance		1 mM		inhibition	35.2%
COc1ccc(-c2cn(C)c3nc(Cl)ccc23)cc1	gag-pol integrase	strand transfer	wild type	10 µM		inhibition	56%
Cc1ccc(Br)c(C)c1C(=O)NCc1nnc2ccc(C(F)(F)F)cn12	IDO1	kynurenine production, inhibitor, item: L-kynurenine	A-375	10 µM, 48 h, with: IFN-γ		inhibition	38 ± 1%
O=C(O)c1ccc(COc2ccccc2-c2cc(=O)n(C3CCCCC3O)cn2)cc1 (stereo not shown)	CHRM1	positive allosteric modulator, IP1 accumulation	CHO-M1 cells	10 µM, 60 min, 37 °C, with: ACh	reference: ACh alone, higher = stronger potentiation	ΔpEC50 of ACh	1.1 ± 0.14 log units
Cc1ccccc1-c1ccc(F)c(C(=O)NCc2nnc3ccc(C(F)(F)F)cn23)c1	IDO1	kynurenine production, inhibitor, item: L-kynurenine	A-375	10 µM, 48 h, with: IFN-γ		inhibition	31 ± 29%
CSCC[C@H](NC(=O)[C@@H](NC(=O)[C@H](CCCNC(=N)N)NC(=O)[C@H](C)N)[C@@H](C)O)C(=O)N[C@H]1CCCCNC(=O)CC[C@@H](C(=O)N[C@H](C(=O)NCC(=O)N[C@@H](C)C(=O)N[C@@H](CCCCN)C(=O)N[C@@H](C)C(=O)N2CCC[C@H]2C(=O)N[C@@H](CCCNC(=N)N)C(=O)N[C@@H](CCCCN)C(=O)N[C@@H](CCC(N)=O)C(=O)N[C@@H](CC(C)C)C(=O)N[C@@H](C)C(=O)O)[C@@H](C)O)NC(=O)[C@H](CCCCN)NC(=O)[C@H](CCCNC(=N)N)NC(=O)[C@H](C)NC(=O)[C@H]([C@@H](C)O)NC1=O	KDM1A with CoREST	demethylase activity, fluorescence		500 nM		inhibition	9 ± 0.7%
COc1ccc(CN2CCN(C(c3ccc(F)cc3)c3ccc(F)cc3)CC2)c(OC)c1OC.Cl.Cl	SCN10A	sodium influx, inhibitor, FLIPR	HEK293	10 µM, with: deltamethrin 10 µM		inhibition	91%
Cc1ccc(-c2cccc(C(=O)NCc3nnc4ccc(C(F)(F)F)cn34)c2)cc1	IDO1	kynurenine production, inhibitor, item: L-kynurenine	A-375	10 µM, 48 h, with: IFN-γ		inhibition	39 ± 4%
O=C1/C(=C/c2ccc(O)c(Br)c2)OC(=S)N1c1ccccc1	PPO3	enzyme activity, inhibitor		25 µM, with: L-tyrosine		inhibition	25%
glutathione	GAPDH (Homo sapiens, UniProt P04406)	protein aggregation, turbidity		50 µM, 48 h, 37 °C		inhibition	43.3 ± 2.55%
C/C(=N/N=c1/scc(-c2ccc([N+](=O)[O-])cc2)n1-c1ccc(F)cc1)c1ccc2c(c1)OCCO2	Aldo-keto reductase family 1 member B1	enzyme activity, inhibitor, absorbance		1 mM		inhibition	11%
O=C(NCc1cccc2ccccc12)c1cccc2cn[nH]c12	IDO1	kynurenine production, inhibitor, item: L-kynurenine	A-375	10 µM, 48 h, with: IFN-γ		inhibition	2 ± 2%
O=C1/C(=C/c2ccc(O)c(O)c2)OC(=S)N1c1ccccc1	PPO3	enzyme activity, inhibitor		25 µM		inhibition	30.6%
O=C(NCc1ccccc1)c1cnn(Cc2ccc(Cn3ccccc3=O)cc2)c1	Plasma kallikrein (KLKB1, Homo sapiens, UniProt P03952)	enzyme activity, inhibitor		1 µM		inhibition	< 30%

Molecule	target	assay	system	conditions	how to read	quantity	result
CSCC[C@H](NC(=O)[C@@H](NC(=O)[C@H](CCCNC(=N)N)NC(=O)[C@H](C)N)[C@@H](C)O)C(=O)N[C@H]1CCCCNC(=O)CC[C@@H](C(=O)N[C@H](C(=O)NCC(=O)NCC(=O)N[C@@H](CCCCN)C(=O)N[C@@H](C)C(=O)N2CCC[C@H]2C(=O)N[C@@H](CCCNC(=N)N)C(=O)N[C@@H](CCCCN)C(=O)N[C@@H](CCC(N)=O)C(=O)N[C@@H](CC(C)C)C(=O)N[C@@H](C)C(=O)O)[C@@H](C)O)NC(=O)[C@H](C)NC(=O)[C@H](CCCNC(=N)N)NC(=O)[C@H](C)NC(=O)[C@H]([C@@H](C)O)NC1=O	KDM1A with CoREST	demethylase activity, fluorescence		500 nM		inhibition	0%
COc1cc(C(=O)OCCCN2CCCN(CCCOC(=O)c3cc(OC)c(OC)c(OC)c3)CC2)cc(OC)c1OC.Cl.Cl	SCN10A	sodium influx, inhibitor, FLIPR	HEK293	10 µM, with: deltamethrin 10 µM		inhibition	76.9%
Cn1cc(-c2ccccc2)c2ccc(Cl)nc21	gag-pol integrase	strand transfer	wild type	10 µM		inhibition	14.4%
Brc1ccc(-c2cs/c(=N/N=C\c3c[nH]c4ccccc34)n2C2CCCCC2)cc1	Aldo-keto reductase family 1 member B1	enzyme activity, inhibitor, absorbance		1 mM		inhibition	< 50%
O.O=C(O)C(O)C(O)C(=O)O.O=C(c1ccc(F)cc1)C1CCN(CCn2c(=O)[nH]c3ccccc3c2=O)CC1	SCN10A	sodium influx, inhibitor, FLIPR	HEK293	10 µM, with: deltamethrin 10 µM		inhibition	91.9%
O=C(N[C@@H](Cn1ccnc1)c1ccc(-c2ccc(F)cc2)cc1Cl)c1ccc(-c2nnc(-c3ccccc3)o2)cc1	CYP51 (Trypanosoma cruzi, UniProt Q7Z1V1)	enzyme activity, inhibitor		1 µM, 1 h, equimolar inhibitor/enzyme, with: eburicol 50 µM		inhibition	inhibited
CCC(NC(C)C)C(O)c1ccc(O)c(O)c1.CS(=O)(=O)O (stereo not shown)	SCN10A	sodium influx, inhibitor, FLIPR	HEK293	10 µM, with: deltamethrin 10 µM		inhibition	98.5%
CCCCCCCCCCC[C@H](C[C@@H]1OC(=O)[C@H]1CCCCCC)OC(=O)[C@H](CC(C)C)NC=O	fbpC (Mycobacterium tuberculosis, UniProt P9WQN9)			100 µM		inhibition	57.8 ± 1.6%
C/C(=N/N=c1/scc(-c2ccc(Br)cc2)n1-c1ccccc1)c1ccc2c(c1)NC(=O)CO2	Aldo-keto reductase family 1 member B1	enzyme activity, inhibitor, absorbance		1 mM		inhibition	13.4%
CC(C)(C)c1cnc(CSc2cnc(NC(=O)C3CCNCC3)s2)o1	GSK3A (Homo sapiens, UniProt P49840)	probe labeling, KiNativ live-cell profiling	MOLT-4 CRBN knockout	0.25 µM		inhibition	40.2%
CCCCC/C=C\C/C=C\C/C=C\C/C=C\CCCC(=O)O	CES1	trans-permethrin hydrolysis, inhibitor, HPLC-UV		20 µM, no albumin, with: trans-permethrin 50 µM		inhibition	~93%
CN(C1=CC(=O)C(=O)c2ccccc21)c1ccc(F)cc1	CES1	oseltamivir hydrolysis, inhibitor	U373 MG expressing CES1	5 µM, 30 min, with: oseltamivir 20 µM		inhibition	99%
O=c1cc(-c2ccccc2OCc2ccc(Br)cc2)ncn1C1CCCCC1O (stereo not shown)	CHRM1	positive allosteric modulator, IP1 accumulation	CHO-M1 cells	10 µM, 60 min, 37 °C, with: ACh	reference: ACh alone, higher = stronger potentiation	ΔpEC50 of ACh	1.08 ± 0.44 log units
Cc1ccccc1C=C1CN(CC(=O)c2ccc(F)cc2)CC(=Cc2ccccc2C)C1=O	Genome polyprotein NS2B-NS3 protease	protease activity	dengue virus 2	50 µM		inhibition	< 10%
CC(C)NCC(O)c1ccc(O)c(O)c1.O=C(O)C(O)C(O)C(=O)O (single isomer, unassigned; (+))	SCN10A	sodium influx, inhibitor, FLIPR	HEK293	10 µM, with: deltamethrin 10 µM		inhibition	89%
COc1ccc(C(=O)CN2CC(=Cc3ccc(Cl)cc3Cl)C(=O)C(=Cc3ccc(Cl)cc3Cl)C2)cc1	Genome polyprotein NS2B-NS3 protease	protease activity	dengue virus 2	50 µM		inhibition	< 10%
CCOc1cc(/C=C2\OC(=S)N(c3ccccc3)C2=O)ccc1O	PPO3	enzyme activity, inhibitor		25 µM, with: L-tyrosine		inhibition	< 0%
O=C(NCc1nnc2ccc(Cl)cn12)c1cccc2cn[nH]c12	IDO1	kynurenine production, inhibitor, item: L-kynurenine	A-375	10 µM, 48 h, with: IFN-γ		inhibition	23 ± 5%
COc1cc(/C=C2\OC(=S)N(c3ccccc3)C2=O)cc(OC)c1OC	PPO3	enzyme activity, inhibitor		25 µM, with: L-tyrosine		inhibition	< 0%
CNC(=O)c1ccccc1Nc1cc(Nc2ccc(N3CCOCC3)cc2OC)ncc1C(F)(F)F	Focal adhesion kinase 1, phosphorylated Tyr397 (Ptk2, Mus musculus, UniProt P34152)	Tyr397 phosphorylation, immunoblot	BALB/c mouse, 4T1 tumour, subcutaneous tumour	i.p., 100 mg/kg single, 12 h		inhibition	> 60%

Repeated from above:
Molecule	target	assay	system	conditions	how to read	quantity	result
glutathione	GAPDH (Homo sapiens, UniProt P04406)	protein aggregation, turbidity		50 µM, 48 h, 37 °C		inhibition	43.3 ± 2.55%
C/C(=N/N=c1/scc(-c2ccc([N+](=O)[O-])cc2)n1-c1ccc(F)cc1)c1ccc2c(c1)OCCO2	Aldo-keto reductase family 1 member B1	enzyme activity, inhibitor, absorbance		1 mM		inhibition	11%
O=C(NCc1cccc2ccccc12)c1cccc2cn[nH]c12	IDO1	kynurenine production, inhibitor, item: L-kynurenine	A-375	10 µM, 48 h, with: IFN-γ		inhibition	2 ± 2%
O=C1/C(=C/c2ccc(O)c(O)c2)OC(=S)N1c1ccccc1	PPO3	enzyme activity, inhibitor		25 µM		inhibition	30.6%
O=C(NCc1ccccc1)c1cnn(Cc2ccc(Cn3ccccc3=O)cc2)c1	Plasma kallikrein (KLKB1, Homo sapiens, UniProt P03952)	enzyme activity, inhibitor		1 µM		inhibition	< 30%
